Assay results of several laboratories.
A part holds a random share of what one study measured.

Block 1
Target: TAR DNA-binding protein 43, full length, His tag (TARDBP, Homo sapiens, UniProt Q13148, residues 1-414)
Technique: RNA Bind-n-Seq
Form: RNA
Sample: in vitro
Tested at: 20 nM
Setting: 6-mer, flanks averaged, single round
Added: 150 mM KCl
Reference: input library
Reading: higher = stronger binding
Quantity: 6-mer enrichment (R)
AGGUCU: 0.711
AUCGAG: 0.86
CUCUCG: 0.585
ACGUUA: 0.595
CGUGUC: 0.758
ACCUUA: 0.585
GCACAA: 0.798
UAAAAG: 0.75
GUCUUG: 0.839
ACUAUA: 0.629
CGAUCC: 0.602
GGUAUC: 0.851
CAUCGU: 0.6
CCUGCA: 0.659
AUUUGA: 0.638
AAGCCU: 0.632
CAGUAG: 0.86
GUGGGU: 3.91
AUCCGU: 0.579
AUUGGA: 0.772
GGAGCA: 1.66

Block 2
Target: Sal-like protein 4, full length isoform B (SALL4, Homo sapiens, UniProt Q9UJQ4-2, residues 1-616)
Technique: universal PBM
Form: double-stranded DNA, one strand shown
Sample: in vitro
Tested at: not given
Setting: 8-mer, flanks averaged, mean of replicates
Reading: higher = stronger binding
Quantity: E-score
Residues (chain): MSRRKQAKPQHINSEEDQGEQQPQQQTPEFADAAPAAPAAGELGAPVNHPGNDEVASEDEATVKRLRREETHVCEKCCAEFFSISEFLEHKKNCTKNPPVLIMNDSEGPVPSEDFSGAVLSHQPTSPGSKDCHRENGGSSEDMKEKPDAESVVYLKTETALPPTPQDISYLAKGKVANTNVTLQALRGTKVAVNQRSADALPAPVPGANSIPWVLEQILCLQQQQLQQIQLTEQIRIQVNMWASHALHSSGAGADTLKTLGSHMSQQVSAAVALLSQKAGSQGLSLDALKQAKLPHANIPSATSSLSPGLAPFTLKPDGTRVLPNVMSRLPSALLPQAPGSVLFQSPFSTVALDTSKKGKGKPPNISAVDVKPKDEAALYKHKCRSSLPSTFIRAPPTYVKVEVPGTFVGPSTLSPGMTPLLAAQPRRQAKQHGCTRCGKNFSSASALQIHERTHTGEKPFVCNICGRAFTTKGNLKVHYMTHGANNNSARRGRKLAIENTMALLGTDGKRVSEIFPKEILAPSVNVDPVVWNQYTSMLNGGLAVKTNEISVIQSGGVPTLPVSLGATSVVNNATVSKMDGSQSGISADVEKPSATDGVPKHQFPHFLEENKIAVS
ACTAGAAC: 0.121
CAAGACCC: -0.188
GTGGCACA: -0.154
CTCACCAC: -0.14
GTAGCTAA: -0.0589
AGGGCCAC: -0.289
GCACCAGA: -0.187
AGCTACCG: -0.225
CCTTTTGA: 0.131
GCTGTTCA: 0.0865
AAGAATAC: 0.216
GTTACAGA: 0.0328
CCAGTATA: 0.108
GTTCTTGA: 0.0353
GGAGCTTA: -0.0688
CAGACGAA: 0.0832
ACGCCTTC: -0.0565
AGTTTAGG: -0.00421
CTGCTCGA: -0.192

Block 3
Target: Histone acetyltransferase KAT6A, winged helix 1, GST fusion (KAT6A, Homo sapiens, UniProt Q92794, residues 1-85)
Technique: protein binding microarray
Form: double-stranded DNA, one strand shown
Sample: in vitro
Tested at: not given
Setting: 8-mer, flanks averaged, mean of 2 arrays, mostly near background
Reference: not given
Reading: higher = stronger binding
Quantity: E-score
Target sequence (chain): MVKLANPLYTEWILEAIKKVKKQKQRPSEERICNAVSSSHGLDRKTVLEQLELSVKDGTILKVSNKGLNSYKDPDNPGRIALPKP
GATTTTGA: -0.163
AATTATTC: -0.0491
ACCGTAAG: 0.206
GGAGATAA: -0.00767
GCCAGAAC: -0.113
CCTCACGC: 0.0927
CGACCATC: -0.068
TAGTAGGA: -0.0701
AAGTTGCT: -0.177
GAAGCATA: -0.165
ACTGGATG: -0.209
AATATCCA: -0.0892
AAGCTGGC: -0.0203
GAGACGAA: -0.0213
CGTACAAG: 0.0579
CTCGGGCA: 0.0688

Block 4
Target: Ras GTPase-activating protein-binding protein 1, full length (G3BP1, Homo sapiens, UniProt Q13283)
Chain of UniProt Q13283 (whole entry, looked up): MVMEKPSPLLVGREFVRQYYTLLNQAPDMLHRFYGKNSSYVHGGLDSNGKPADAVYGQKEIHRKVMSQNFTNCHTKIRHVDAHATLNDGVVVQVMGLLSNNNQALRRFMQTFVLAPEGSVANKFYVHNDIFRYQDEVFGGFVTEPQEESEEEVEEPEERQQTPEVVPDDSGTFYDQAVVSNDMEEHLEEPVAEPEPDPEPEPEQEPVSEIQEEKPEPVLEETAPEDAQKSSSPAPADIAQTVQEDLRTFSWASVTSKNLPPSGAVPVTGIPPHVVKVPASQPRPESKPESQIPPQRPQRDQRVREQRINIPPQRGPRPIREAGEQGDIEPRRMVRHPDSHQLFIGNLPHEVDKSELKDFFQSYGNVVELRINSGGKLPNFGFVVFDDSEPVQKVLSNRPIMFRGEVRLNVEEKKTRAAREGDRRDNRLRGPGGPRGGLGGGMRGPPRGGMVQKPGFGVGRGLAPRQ
Technique: RNA Bind-n-Seq
Form: RNA
Sample: in vitro
Tested at: 200 nM
Setting: whole 134-nt RNA, ends assumed
Added: 150 mM LiCl
Reference: input library
Reading: higher = stronger binding
Quantity: log2 enrichment
All molecules: 7-deaza-guanosine replaces G
Shared flanks, not repeated: GGGAGUUCUACAGUCCGACGAUC … UGGAAUUCUCGGGUGUCAAGG
UGGGAGGUGGAUUUUGUUUAUUUUUUUAGCUCAUUUCCAGGGGUGGGAAUUUUUUUUUAAUAUGUGUCAUGAAUAAAGUUGUUUUCGAAA: -0.478
CAAGUCCUGUGCUACACAUCGUAUGUACCGAAUCGGGGCCCGGCCCGGGCCCGGGGAAAGUAUUAUGUUACGCCGUUCGGAUCUGCACUU: -1.45
CCUGUGCUACACAUCGUAUGUACCGAAUCAAACCCCCCCAAAUUUUUUUAAACCCCCAAAAAAGUAUUAUGUUACGCCGUUCGGAUCUGC: 1.33
ACCAUGCAGGUGGGCAUCUUUGGGAAGUGGGGCAAGGGGGGGAUAGGGAGGGGGGUAACACUUUGGGAACAGGUGGUACCAGGUCGUUUC: 0.222
CAAGUCCUGUGCUACACAUCGUAUGUACCGAAUCGGGUGGGAGGGUUUUUUUGGGAAAGUAUUAUGUUACGCCGUUCGGAUCUGCACUUC: 0.0319
UGGGAGGUGGAUUUUGUUUAUUUUUUUAACUCAUUUCCAGGGGUGGGAAUUUUUUUUUAAUAUGUGUCAUGAAUAAAGUUGUUUUUGAAA: -0.429
UCCUGUGCUACACAUCGUAUGUACCGAAUCGGGGAAAAAAGGAAAAAAGGGAAAAAAGGAAAGUAUUAUGUUACGCCGUUCGGAUCUGCA: 0.137
UCAAGUCCUGUGCUACACAUCGUAUGUACCGAAUCGGGUUGGGGUUGGGUUGGGAAAGUAUUAUGUUACGCCGUUCGGAUCUGCACUUCC: -0.0388
GUCCUGUGCUACACAUCGUAUGUACCGAAUCAAACCCCCAAAUUUAAACCCCCCCAAAAAAGUAUUAUGUUACGCCGUUCGGAUCUGCAC: 0.528
UGGGAGGUGGAUAUUGUUUAUUUUUUUAGCUCAUUUCCAGGGGUGGGAAUUUUUUUUUAAUAUGUGUCAUGAAUAAAGUUGUUUUUGAAA: -0.737
ACCAUGCAGGUGGGCAUCUUUGGGAAGUGGGGCAAGGGGGGGAUAGGGAGGGGGGAAACACUUUGGGAACAGGUGGUCCCAGGUCGUUUC: 0.342

Block 5
Target: RNA binding protein fox-1 homolog 2, RRM domain, GST-SBP tag (RBFOX2, Homo sapiens, UniProt O43251-10, residues 100-194)
Technique: RNA Bind-n-Seq
Form: RNA
Sample: in vitro
Tested at: 365 nM
Setting: natural RNA segment, single round, ends assumed
Reference: no-protein control
Reading: higher = stronger binding
Quantity: RBNS enrichment (R)
Shared flanks, not repeated: GGGAGUUCUACAGUCCGACGAUC … UGGAAUUCUCGGGUGCCAA
Residues (chain): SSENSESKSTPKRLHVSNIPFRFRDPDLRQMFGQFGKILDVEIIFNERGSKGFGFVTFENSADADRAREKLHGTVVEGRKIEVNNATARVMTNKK
GUGUGAGUGUGCAAGUAUGUGUGCAGAGCUUGUGUUUCAUACUGCAGAUAUAAAUAAAGGAAGAUAGAGAACAUUCCUGCUGUGGGACUGUGAGUUCUGGGACUCAGAGU: 1.02
UUUGACAGAAACCUAAAGACACAUCCACAUCCAUGCAUAGGGCUGUUGCUUGUUGUGUUGUAGGCAUGCUCUUCUCACCUUCUGUCAAGGACCUGGUGCCCUGGGUGGUG: 9.57
AAUUCUGCUCCCAAGCCCUUGUAUCUUGGGCUUCAUUUUAGGCUCAUGUGUCAGAUCUGCAUGCAUUGCUUGCAUUUUUCUGGUAUCUGAAUGUUGGUUCCUUGUUCCAG: 0.647
GGGCUCCCUGGCAUGCCUGCCCUAGAAUUGUUAUGUUGGGCAUCACAGUCAUGAACUUUUGUUUUUCUCCCUUUUUUAGUUUUUUCAAAGAUGGGGGGAAGGGAAAUAUG: 1.9
AUAGUUGAGCGCGUUCUUAGCAGUUGGCUUCAUGGACAACUCAUUAGUGUUUUGACUUUUCUUACCCAGCGUUAAUUGAAUUCUUGCUUUUAGACAACUUCCUUUUUGUA: 0.583
UAACAUUGAAUACCAGGCUACAUGUGCCCCCGGGUUCCUUCCUAGAAAUGUGGCAGCCCAUUCCAGCACACAGGCUUCUGCAGCAAUCUCUGAGGGUAAAGCCGGUGGGA: 0.384
CAGUGAGCGGCAGCCUCAGGGGCCUCAGGGGAGCCCCCACCCCACGGAUGUUGUCAGGAAUCAUGAUCUGACUUUAAUUGUGUGUCUUCUAUUAUAACUGCAUAGUAAUA: 0.686
UGACCUUCAAGAAAAUGGAAAUAUUUGUAAAUUCUUGGUAAUGCCUCCGUUGUAAUUAAUGAAACUAUUUUCUUUAAAGUGUUUCUAUGUUAAAAUAGCAUACUGUGUAU: 0.552
AGCUGUUUUAAAAUUAUGUAAAUAAGUCACAGGCUAGUUAUUUGAAAACUCUAAGUCACUUUAAUUUUGUCAGAAUCUUCUCUUACUAGGUAGGCCCAGGAUGUUCCAUA: 0.467
UCCUCCAGUUUUUAAUUUACUUUCGGAGUUUGUGUUGAUUUUGAUGGCACGUGACUUUUAAGCAGUAGGAUUUUGCCAAGCAGAAUUUUUGAAGGCAUGAGGCCAGUGAC: 0.618
AGUACAGUUCAAGUGAAUCUGGAUAAUUGUUCAUCUUUGCUUUAGCUUAGAUACCAUGUAGUGGUCUGUGGCUACAGGAAGCUGGUUCUGUCUGCUUCCACAGUCUGCUU: 0.232
UGUGCUUUUUAAGAAUAUUUUUAGACUAUUUCUUUUUAUAGGGGCUUUGCUGAAUUCUAACAUUAAAUCACAGCCCAAAAUUUGAUGGACUAAUUAUUAUUUUAAAAUAU: 0.854

Some of these lines once more (block 3):
AATTATTC: -0.0491
CCTCACGC: 0.0927
GGAGATAA: -0.00767
CGACCATC: -0.068
CTCGGGCA: 0.0688
ACCGTAAG: 0.206
GCCAGAAC: -0.113
GAAGCATA: -0.165
ACTGGATG: -0.209
AATATCCA: -0.0892
CGTACAAG: 0.0579
